# Measurements collected from several papers.
# Each line is one published result; not all experiments were run side by side.
SMILES,assay,system,conditions,endpoint,result
O=C1Nc2cc3[nH]nc(-c4ccncc4)c3cc2CN1Cc1ccccc1,CTCAE v4.03,advanced solid tumour patients,"intravenous, 0.9 mg/kg, schedules 1/2",patients with back pain,0%
C[C@@H]1OC(=O)NN=C1c1ccc(-c2ccc(F)cc2)c(C(F)(F)F)c1,,"patients, phase I trial","oral, 5 mg once daily, worst grade 1",patients with AST increased,0%
CCN(CCO)CCCC(C)Nc1ccnc2cc(Cl)ccc12 (centres unmarked),item: Diarrhea grade 1,newly diagnosed glioblastoma patients,"oral, 800 mg/dose, with radiotherapy and temozolomide",patients with adverse event,66%
C=CCNc1c(O)cc2c(O)c1C[C@@H](C)C[C@H](OC)[C@H](O)[C@@H](C)/C=C(\C)[C@H](OC(N)=O)[C@@H](OC)/C=C\C=C(/C)C(=O)N2,,"unresectable or metastatic STS, GIST, other","intravenous, 150 mg/m^2",patients with diarrhoea TEAE,0%
Cc1cc(OCCOCCC(F)(F)P(=O)(O)O)ccc1CCc1cnc2c(N)nc3cc(CCC(=O)O)ccc3c2c1,item: pyrexia,adults with advanced solid tumours,"dose not given, all groups pooled, all grades",patients with non-serious AE,37.8%
Nc1nc2cc(-c3ccc4ncc(C(=O)N5CCOCC5)n4c3)ccc2o1,item: Fatigue,advanced solid tumour patients,"dose not given, all grades, all doses",patients with adverse event,48%
COc1c(OCCCN2CCOCC2)ccc2c1N=C(NC(=O)c1cnc(N)nc1)N1CCN=C21,"item: other investigations, any grade",patients with advanced malignancies,"intravenous, dose not given, all cohorts, together with: gemcitabine",patients with adverse events,30%
CC(=O)c1c(C)c2cnc(Nc3ccc(C4CCN(CCS(C)(=O)=O)CC4)cn3)nc2n(C2CCCC2)c1=O,,HR+/HER2- advanced breast cancer patients,"oral, dose not given, grade 3/4,, sample A patients",patients with neutropenia,65.4%
CO[C@H]1C[C@@H]2CC[C@@H](C)[C@@](O)(O2)C(=O)C(=O)N2CCCC[C@H]2C(=O)O[C@H]([C@H](C)C[C@@H]2CC[C@@H](OC(=O)NCCOCCOCCOCCOCCOCCOCCOCCOCCC(=O)N3CCc4cc(Cn5nc(-c6ccc7oc(N)nc7c6)c6c(N)ncnc65)ccc4C3)[C@H](OC)C2)C[C@@H](O)[C@H](C)/C=C(\C)[C@@H](O)[C@@H](OC)C(=O)[C@H](C)C[C@H](C)/C=C/C=C/C=C/1C,item: grade ≥3 treatment-related mucositis,patients with advanced solid tumours,"intravenous, 8 to 12 mg, DM alone, weekly",patients with AE,15%
CN1CC[C@@H](c2c(O)cc(O)c3c(=O)cc(-c4ccc(C(F)(F)F)cc4Cl)oc23)[C@@H]1CO,item: Neutropenia,B-cell malignancies or AML,"oral, 50 mg, continuous dosing",patients with adverse event,0%
N[C@@H]1c2ccccc2OC12CCN(c1cnc3c(N4CCCc5ncccc54)n[nH]c3n1)CC2,,advanced solid tumour patients,"oral, 10 mg once daily",patients with grade ≥3 TEAE,33.3%

# Some of these lines once more:
SMILES,assay,system,conditions,endpoint,result
Nc1nc2cc(-c3ccc4ncc(C(=O)N5CCOCC5)n4c3)ccc2o1,item: Fatigue,advanced solid tumour patients,"dose not given, all grades, all doses",patients with adverse event,48%
COc1c(OCCCN2CCOCC2)ccc2c1N=C(NC(=O)c1cnc(N)nc1)N1CCN=C21,"item: other investigations, any grade",patients with advanced malignancies,"intravenous, dose not given, all cohorts, together with: gemcitabine",patients with adverse events,30%
